Measured values pooled from the literature.
Compare with care: the assays were run in different laboratories.
Organism: Bacillus subtilis

CCCCCCCCCCCCCCNC(=O)CP(=O)(O)O — MIC (ATCC 23857): 50 µg/mL
CC(C)C[C@H](NC(=O)[C@@H](NC(=O)[C@H](CCCNC(=N)N)NC(=O)[C@H](CCC(N)=O)NC(=O)[C@H](Cc1ccccc1)NC(=O)[C@H](Cc1ccc(O)cc1)NC(=O)[C@H](CC(N)=O)NC(=O)[C@H](Cc1c[nH]c2ccccc12)NC(=O)[C@@H](NC(=O)[C@H](CCCNC(=N)N)NC(=O)[C@H](CCCCN)NC(=O)[C@@H](N)Cc1ccccc1)C(C)C)C(C)C)C(=O)N[C@H](C(=O)N[C@@H](CCCCN)C(=O)N[C@@H](CCCCN)C(=O)N[C@@H](Cc1ccc(O)cc1)C(=O)N[C@@H](C)C(N)=O)C(C)C — MIC (broth dilution; KCTC 3068): < 3.1 µM
N=C(N)NCCC[C@H](NC(=O)[C@H](Cc1c[nH]c2ccccc12)NC(=O)[C@@H](N)CCCNC(=N)N)C(=O)N[C@@H](Cc1c[nH]c2ccccc12)C(=O)N[C@@H](Cc1ccccc1)C(=O)N[C@@H](CCC(N)=O)C(=O)N[C@@H](Cc1ccccc1)C(=O)N[C@@H](CCC(N)=O)C(=O)N[C@@H](Cc1ccccc1)C(=O)N[C@@H](CCCCN)C(N)=O — MIC (broth microdilution, optical density): 8.8 µM
CC[C@H](C)[C@H](NC(=O)CN)C(=O)NCC(=O)N[C@@H](CCCCN)C(=O)N[C@@H](Cc1ccccc1)C(=O)N[C@@H](CC(C)C)C(=O)N[C@@H](CCCCN)C(=O)N[C@@H](CCCCN)C(=O)N[C@@H](C)C(=O)N[C@@H](CCCCN)C(=O)N[C@@H](CCCCN)C(=O)N[C@@H](Cc1ccccc1)C(=O)NCC(=O)N[C@@H](CCCCN)C(=O)N[C@@H](C)C(=O)N[C@@H](Cc1ccccc1)C(=O)N[C@H](C(=O)N[C@@H](CCCCN)C(=O)N[C@H](C(=O)N[C@@H](CC(C)C)C(=O)N[C@@H](CCCCN)C(=O)N[C@@H](CCCCN)C(N)=O)[C@@H](C)CC)C(C)C — MIC (broth dilution; KCTC 3068): 6.3 µM
CC(C)C[C@@H]1NC(=O)[C@H](Cc2ccccc2)NC(=O)[C@H](Cc2ccc(O)cc2)NC(=O)[C@H](CC(C)C)NC(=O)[C@H](CCC(=O)O)NC(=O)[C@H](Cc2ccccc2)NC(=O)[C@H](CCCNC(=N)N)NC(=O)[C@H](CCC(N)=O)NC(=O)[C@H](CC(C)C)NC(=O)[C@H](CC(=O)O)NC(=O)[C@@H]2CCCN2C(=O)[C@H](CCCCN)NC(=O)[C@H](C(C)C)NC(=O)[C@H](CC(N)=O)NC(=O)[C@H](Cc2ccc(O)cc2)NC(=O)[C@H]([C@@H](C)O)NC(=O)[C@@H](N)CSSC[C@@H](C(=O)O)NC(=O)[C@H]([C@@H](C)O)NC(=O)[C@H](C(C)C)NC(=O)[C@H]([C@@H](C)O)NC(=O)CNC1=O — MIC (broth dilution; CGMCC strain; 24 h): > 40 µM
CCCCCCCC/C=C\CCCCCCCC(=O)NS(=O)(=O)NCCC — MIC (ATCC 23857): > 200 µg/mL
CC[C@H](C)[C@H](N)C(=O)N[C@@H](CCCNC(=N)N)C(=O)N[C@H](C(=O)N[C@@H](Cc1c[nH]c2ccccc12)C(=O)N[C@@H](Cc1ccccc1)C(=O)N[C@H](C(=O)N[C@@H](CCCCN)C(=O)N[C@H](C(=O)N[C@@H](CCCNC(=N)N)C(=O)N[C@@H](CCCCN)C(=O)N[C@@H](Cc1c[nH]c2ccccc12)C(=O)N[C@@H](CCCCN)C(=O)N[C@@H](C)C(=O)N[C@H](C(=O)N[C@@H](Cc1ccc(O)cc1)C(=O)N[C@@H](Cc1c[nH]cn1)C(=O)N[C@H](C(N)=O)[C@@H](C)O)[C@@H](C)CC)C(C)C)[C@@H](C)CC)C(C)C — MIC (broth dilution; KCTC 3068): 50 µM
CCCCCCCCCCCCCCCC(=O)NS(=O)(=O)OCCCC — MIC (ATCC 23857): > 200 µg/mL
CC[C@H](C)CCCCC(=O)N[C@@H](CCN)C(=O)N[C@H](C(=O)N[C@@H](CCN)C(=O)N[C@H]1CCNC(=O)[C@H]([C@@H](C)O)NC(=O)[C@H](CCN)NC(=O)[C@H](CCN)NC(=O)[C@H](CC(C)C)NC(=O)[C@@H](Cc2ccccc2)NC(=O)[C@H](CCN)NC1=O)[C@@H](C)O — MIC (broth microdilution; ATCC 6633; 24 h): 1.5 µM
Cc1ccc2[nH]c3c(c2c1)CCCC3NCCc1ccc(Br)cc1 (centres unmarked) — MIC (broth microdilution; 168): 4 µg/mL
CC[C@H](C)[C@H](NC(=O)[C@H](CC(C)C)NC(=O)[C@H](CCCCN)NC(=O)[C@@H](NC(=O)[C@H](C)NC(=O)[C@H](CCC(=O)O)NC(=O)[C@H](Cc1c[nH]cn1)NC(=O)[C@@H](NC(=O)[C@H](CCCCN)NC(=O)[C@H](CCC(N)=O)NC(=O)[C@H](Cc1ccccc1)NC(=O)[C@@H](N)C(C)C)[C@@H](C)CC)[C@@H](C)CC)C(N)=O — MIC (broth microdilution; KCTC 1998; 18 h, 37 °C): > 128 µM
N=C(N)NCCC[C@H](NC(=O)[C@@H](N)CCCNC(=N)N)C(=O)N[C@@H](Cc1c[nH]c2ccccc12)C(=O)N[C@@H](Cc1c[nH]c2ccccc12)C(=O)N[C@@H](Cc1ccccc1)C(=O)N[C@@H](CCC(N)=O)C(=O)N[C@@H](Cc1ccccc1)C(=O)N[C@@H](CCC(N)=O)C(=O)N[C@@H](Cc1ccccc1)C(=O)N[C@@H](CCCCN)C(N)=O — MIC (broth microdilution, optical density): 71 µM
Cc1ccc2[nH]c3c(c2c1)CCCC3NCCc1ccc(O)cc1 (centres unmarked) — MIC (broth microdilution; 168): 16 µg/mL
CCCCCCCCCCCC(=O)OC[C@H]1O[C@@H](n2cc(C)c(=O)[nH]c2=O)C[C@@H]1O — MIC (broth microdilution): 0.25 µg/mL

For quick reference, copied from above:
CCCCCCCCCCCCCCCC(=O)NS(=O)(=O)OCCCC — MIC (ATCC 23857): > 200 µg/mL
